Experimental data gathered from unrelated publications.
Lines come from different studies, so protocols differ.

Cc1cnn(Cc2ccc(Cn3cc(C(=O)NCc4ccc5c(N)nccc5c4)cn3)cc2)c1  IC50 (trypsin): > 40 µM
C(/Cc1ccc(OCc2ccccc2)cc1)=C(\COCc1ccccc1)c1ccc(OCc2ccccc2)cc1  IC50 (STAT3; reporter gene, inhibitor; NCI-H460): 4.25 µg/mL
NCc1ccc(CNC(=O)c2cnn(Cc3ccc(Cn4ccccc4=O)cc3)c2)cc1  IC50 (trypsin): 27 µM
CN1CCN(CCNCc2cc3cc(Br)ccc3nc2SCc2ccccc2)CC1  IC50 (Pseudomonas aeruginosa electron transport chain; ACMA quenching; inverted membrane vesicles; together with: NADH): 4.1 µg/mL
CCc1nc(N)nc(N)c1-c1ccc(Cl)cc1  IC50 (β-hematin formation; detergent-based): inactive
CC1=C(C#N)[C@@H](c2ccc(C#N)cc2S(C)(=O)=O)N(C)C(=O)N1c1cccc(C(F)(F)F)c1  IC50 (trypsin): > 30 µM
N=C(N)c1ccc(CNC(=O)c2cnn(Cc3ccccc3)c2)cc1  IC50 (trypsin): 2.5 µM
CC(=O)[C@]1(O)Cc2c(O)c3c(c(O)c2[C@@H](O[C@H]2C[C@H](N)[C@H](O)[C@H](C)O2)C1)C(=O)c1ccccc1C3=O  EC90 (Toxoplasma gondii; parasite growth; HFF, bradyzoite, glutamine-induced): 1.91 µM
Cc1cnn(Cc2ccc(Cn3cc(C(=O)NCc4ccc(CN)cc4)cn3)cc2)c1  IC50 (trypsin): 27 µM
COc1cc(C/C=C/c2ccc(O)cc2)ccc1O  IC50 (STAT3; reporter gene, inhibitor; NCI-H460): 2.05 µg/mL
CCN(Cc1c(F)cccc1Cl)c1c([N+](=O)[O-])cc(C(F)(F)F)cc1[N+](=O)[O-]  IC50 (anti-BL mouse monoclonal antibody; binding, indirect competitive ELISA; pH 7.4, 1% methanol): > 1 µg/mL
COc1ccc(C/C=C/c2ccc(O)c(OC)c2)cc1  IC50 (STAT3; reporter gene, inhibitor; NCI-H460): 1.95 µg/mL
NS(=O)(=O)C#Cc1ccccc1  EC90 (Toxoplasma gondii; parasite growth, luciferase reporter; HFF, tachyzoite; 72 h): 47.8 µM
COc1ccc(C/C=C(/CO)c2ccc(OC)cc2)cc1  IC50 (STAT3; reporter gene, inhibitor; NCI-H460): 5.03 µg/mL
Cn1cc(-c2ccc(-c3cncc(Cl)c3N3CCC4(CCNC4=O)CC3)cc2)cn1  log2 fold change (COLO 205; gene expression, microarray, refers to: ARHGEF39 (C9orf100) mRNA; concentration not given, 6 h; relative to: untreated cells): -2.26
